{"data": "Assay results from different studies", "note": "Compare with care: the assays were run in different laboratories. ± gives the spread as reported."}
{"SMILES": "CC(C)C[C@H](NC(=O)[C@H](Cc1cccc2ccccc12)NC(=O)[C@H](CNC(=O)c1ccc(F)nc1)NC(=O)[C@H](CO)NC(=O)C1CCNCC1)C(=O)N[C@@H](C(=O)N1CCC[C@H]1C(=O)N[C@H](C(N)=O)[C@@H](C)O)[C@H](C)O", "assay": "chemical stability", "system": "male human, serum", "conditions": "1 mM, pH 7.4", "endpoint": "half-life", "result": "> 24 h"}
{"SMILES": "Oc1ccc2ccc3c4ccccc4cc4ccc1c2c43", "assay": "UPLC-AMS", "system": "human, plasma", "conditions": "oral, 25 ng of [14C]-BaP", "endpoint": "half-life", "result": "14 ± 20.5 h"}
{"SMILES": "CCc1nnc(NS(=O)(=O)c2ccc(NC(=S)NC(=O)/C=C/c3ccc(F)cc3)cc2)s1", "system": "female C57BL/6 mouse, plasma", "endpoint": "half-life", "result": "2.7 h"}
{"SMILES": "CC(C)C[C@H](NC(=O)[C@H](Cc1cccc2ccccc12)NC(=O)[C@H](CNC(=O)c1ccc(F)nc1)NC(=O)[C@H](CO)NC(=O)C1CCNCC1)C(=O)N[C@@H](CCC(N)=O)C(=O)N1CCC[C@H]1C(=O)N[C@H](C(N)=O)[C@@H](C)O", "assay": "chemical stability", "system": "male human, serum", "conditions": "1 mM, pH 7.4", "endpoint": "half-life", "result": "> 24 h"}
{"SMILES": "CCCCCOc1ccc(-c2cc(-c3ccc(C(=O)N[C@H]4C[C@@H](O)[C@@H](O)NC(=O)[C@@H]5[C@@H](O)[C@@H](C)CN5C(=O)[C@H]([C@H](O)CC(N)=O)NC(=O)[C@H]([C@H](O)[C@@H](O)c5ccc(O)c(OS(=O)(=O)O)c5)NC(=O)[C@@H]5C[C@@H](O)CN5C(=O)[C@H]([C@@H](C)O)NC4=O)cc3)no2)cc1", "system": "young infants under 1000 g, plasma", "conditions": "intravenous infusion, 10 mg/kg/day, day 4, median, 1 h infusion, repeat dosing", "endpoint": "half-life", "result": "10.4 h"}
{"SMILES": "CC[C@H](C)[C@H](NC(=O)[C@H](CCCNC(=N)N)NC(=O)[C@H](CC(C)C)NC(=O)[C@@H](N)Cc1ccccc1)C(=O)N[C@@H](CCCNC(=N)N)C(=O)N1CCC[C@H]1C(=O)N[C@@H](CCCCN)C(=O)O", "system": "rat plasma", "conditions": "together with: chymostatin 100 µM", "endpoint": "half-life", "result": "1 h"}
{"SMILES": "O=C([O-])[C@H](Cc1ccccc1)N1C(=O)/C(=C\\c2ccc(-c3ccc(Cl)c(Cl)c3)o2)NC1=S.[Na+]", "system": "CD-1 mouse, female, plasma", "conditions": "intraperitoneal", "endpoint": "half-life", "result": "2 to 3 h"}
{"SMILES": "O[C@H]1CCCN[C@@H]1CCCn1cnc2c(Cl)c(Cl)ccc21", "system": "human, plasma", "conditions": "oral, 300 mg, single dose, healthy volunteers", "endpoint": "half-life", "result": "8.33 h"}
{"SMILES": "COc1ccc(C[C@@H]2NC(=O)[C@H]([C@@H](C)O)NC(=O)[C@@H]3[C@@H]4CCN3C(=O)[C@@H]3Cc5cn(c6ccc(F)cc56)CCCCCCN(Cc5ccc(cc5)CCNC(=O)[C@]5(C)CCCN5C2=O)C(=O)CCC(=O)N[C@@H](C)C(=O)N[C@H](CNC(=O)CCCCC[N+](C)(C)C)C(=O)N[C@@H](Cc2cccc(c2)CNC(=O)CO4)C(=O)N3)cc1", "system": "healthy fasted humans, plasma", "conditions": "oral, 300 mg single dose, geometric mean, together with: Labrasol 1800 mg", "endpoint": "half-life", "result": "130 h"}
{"SMILES": "CCCC[C@H](NC(=O)[C@H](Cc1cccc2ccccc12)NC(=O)[C@H](CNC(=O)c1ccc(F)nc1)NC(=O)[C@H](CO)NC(=O)C1CCNCC1)C(=O)N[C@@H](CO)C(=O)N1CCC[C@H]1C(=O)N[C@H](C(N)=O)[C@@H](C)O", "assay": "chemical stability", "system": "male human, serum", "conditions": "1 mM, pH 7.4", "endpoint": "half-life", "result": "1.7 h"}
{"SMILES": "O=c1[nH]c(Cc2ccccn2)nc2c1cnn2C1CCOCC1", "system": "healthy men, extensive metabolizers, plasma", "conditions": "oral, 5 mg single dose, tablet, geometric mean", "endpoint": "half-life", "result": "1.16 h"}
{"SMILES": "CCCCCCCCCCCCCCCC(=O)NCCCC[C@H](NC(=O)[C@H](CCC(=O)O)NC(=O)[C@H](CCC(=O)O)NC(=O)[C@H](Cc1ccc(O)cc1)NC(=O)[C@H](CCC(=O)O)NC(=O)CCCCCNC(=S)Nc1ccc2c(c1)C(=O)OC21c2ccc(O)cc2Oc2cc(O)ccc21)C(=O)N[C@@H](Cc1ccc(O)cc1)C(=O)N[C@@H](CCC(=O)O)C(=O)NCC(=O)NCC(=O)NCC(=O)NCC(=O)N[C@@H](CO)C(=O)NCC(=O)NCC(=O)NCC(=O)NCC(=O)N[C@@H](CO)C(=O)N[C@@H](Cc1ccccc1)C(=O)N[C@@H](CC(N)=O)C(=O)N1CCC[C@H]1C(=O)N[C@@H](CCCNC(=N)N)C(=O)N[C@@H](Cc1c[nH]cn1)C(=O)NC(C)(C)C(=O)N[C@@H](CCC(=O)O)C(=O)NCC(=O)N[C@H](C(=O)N[C@@H](Cc1ccccc1)C(=O)N[C@H](C(=O)N[C@@H](CO)C(=O)N[C@@H](CC(=O)O)C(=O)N[C@H](C(=O)N[C@@H](CO)C(=O)N[C@@H](CO)C(=O)N[C@@H](Cc1ccc(O)cc1)C(=O)N[C@@H](CC(C)C)C(=O)N[C@@H](CCC(=O)O)C(=O)NCC(=O)N[C@@H](CCC(N)=O)C(=O)N[C@@H](C)C(=O)N[C@@H](C)C(=O)N[C@@H](CCCCN)C(=O)N[C@@H](CCC(=O)O)C(=O)N[C@@H](Cc1ccccc1)C(=O)N[C@H](C(=O)N[C@@H](C)C(=O)N[C@@H](Cc1c[nH]c2ccccc12)C(=O)N[C@@H](CC(C)C)C(=O)N[C@H](C(=O)N[C@@H](CCCCN)C(=O)NCC(=O)N[C@@H](CCCNC(=N)N)C(=O)NCC(=O)O)C(C)C)[C@@H](C)CC)C(C)C)[C@@H](C)O)[C@@H](C)O", "assay": "refers to: released GLP-1 analogue", "system": "rhesus monkey, plasma", "conditions": "subcutaneous, 10 nmol/kg", "endpoint": "half-life", "result": "74 h"}
{"SMILES": "CC(C)C[C@H](NC(=O)[C@H](Cc1cccc2ccccc12)NC(=O)[C@H](CNC(=O)c1ccc(F)nc1)NC(=O)[C@H](CO)NC(=O)C1CCNCC1)C(=O)N(C)[C@@H](CO)C(=O)N1CCC[C@H]1C(=O)N[C@H](C(N)=O)[C@@H](C)O", "assay": "chemical stability", "system": "male human, serum", "conditions": "1 mM, pH 7.4", "endpoint": "half-life", "result": "> 24 h"}
{"SMILES": "C#CCn1c(C)c(C(=O)C(=O)NC(C)(C)C#C)c(C)c1C(=O)Nc1ccc(F)c(F)c1", "system": "mouse liver microsomes", "conditions": "1 µM, together with: ritonavir 3 µM", "endpoint": "half-life", "result": "1.8 h"}
{"SMILES": "CC(C)C[C@H](NC(=O)[C@H](Cc1cccc2ccccc12)NC(=O)[C@H](CNC(=O)c1ccc(F)nc1)NC(=O)[C@H](CO)NC(=O)C1CCNCC1)C(=O)N[C@@H](CCO)C(=O)N1CCC[C@H]1C(=O)N[C@H](C(N)=O)[C@@H](C)O", "assay": "chemical stability", "system": "male human, serum", "conditions": "1 mM, pH 7.4", "endpoint": "half-life", "result": "> 24 h"}
{"SMILES": "CN[C@@](C)(C[18F])C(=O)O", "target or system": "A549 tumour model", "system": "host not given, pancreas", "conditions": "15 min, tumour-bearing", "endpoint": "tracer uptake", "result": "56 %ID/g"}
{"note": "Some of these lines once more:"}
{"SMILES": "CC(C)C[C@H](NC(=O)[C@H](Cc1cccc2ccccc12)NC(=O)[C@H](CNC(=O)c1ccc(F)nc1)NC(=O)[C@H](CO)NC(=O)C1CCNCC1)C(=O)N[C@@H](C(=O)N1CCC[C@H]1C(=O)N[C@H](C(N)=O)[C@@H](C)O)[C@H](C)O", "assay": "chemical stability", "system": "male human, serum", "conditions": "1 mM, pH 7.4", "endpoint": "half-life", "result": "> 24 h"}
